Measured values gathered from unrelated publications.
Numbered parts are unrelated; each lists some results of a single study. Several values in a cell are separate wells, animals, samples, runs or records.
UniProt Q12852, sequence (whole entry, looked up): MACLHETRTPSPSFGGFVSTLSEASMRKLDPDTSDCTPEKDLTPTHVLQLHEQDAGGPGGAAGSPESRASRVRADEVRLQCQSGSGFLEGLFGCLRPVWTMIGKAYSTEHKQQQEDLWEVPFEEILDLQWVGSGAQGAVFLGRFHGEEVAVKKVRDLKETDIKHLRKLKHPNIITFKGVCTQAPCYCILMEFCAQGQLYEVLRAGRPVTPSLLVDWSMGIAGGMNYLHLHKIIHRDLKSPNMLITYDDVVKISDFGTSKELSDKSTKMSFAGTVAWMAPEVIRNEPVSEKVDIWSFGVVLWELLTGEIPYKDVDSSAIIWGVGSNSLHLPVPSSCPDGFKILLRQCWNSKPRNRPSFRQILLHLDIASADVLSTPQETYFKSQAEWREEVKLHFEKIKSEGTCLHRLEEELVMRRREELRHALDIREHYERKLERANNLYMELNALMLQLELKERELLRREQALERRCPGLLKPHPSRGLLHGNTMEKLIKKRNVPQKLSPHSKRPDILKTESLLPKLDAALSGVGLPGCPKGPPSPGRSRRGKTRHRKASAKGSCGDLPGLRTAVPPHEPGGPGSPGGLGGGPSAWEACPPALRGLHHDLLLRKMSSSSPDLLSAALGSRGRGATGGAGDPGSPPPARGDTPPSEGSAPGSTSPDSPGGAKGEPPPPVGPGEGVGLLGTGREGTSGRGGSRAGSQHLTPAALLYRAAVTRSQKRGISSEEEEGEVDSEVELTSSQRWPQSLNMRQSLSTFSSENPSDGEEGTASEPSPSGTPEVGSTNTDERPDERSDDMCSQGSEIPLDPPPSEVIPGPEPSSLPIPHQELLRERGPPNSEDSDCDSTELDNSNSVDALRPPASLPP
UniProt P16591, sequence (whole entry, looked up): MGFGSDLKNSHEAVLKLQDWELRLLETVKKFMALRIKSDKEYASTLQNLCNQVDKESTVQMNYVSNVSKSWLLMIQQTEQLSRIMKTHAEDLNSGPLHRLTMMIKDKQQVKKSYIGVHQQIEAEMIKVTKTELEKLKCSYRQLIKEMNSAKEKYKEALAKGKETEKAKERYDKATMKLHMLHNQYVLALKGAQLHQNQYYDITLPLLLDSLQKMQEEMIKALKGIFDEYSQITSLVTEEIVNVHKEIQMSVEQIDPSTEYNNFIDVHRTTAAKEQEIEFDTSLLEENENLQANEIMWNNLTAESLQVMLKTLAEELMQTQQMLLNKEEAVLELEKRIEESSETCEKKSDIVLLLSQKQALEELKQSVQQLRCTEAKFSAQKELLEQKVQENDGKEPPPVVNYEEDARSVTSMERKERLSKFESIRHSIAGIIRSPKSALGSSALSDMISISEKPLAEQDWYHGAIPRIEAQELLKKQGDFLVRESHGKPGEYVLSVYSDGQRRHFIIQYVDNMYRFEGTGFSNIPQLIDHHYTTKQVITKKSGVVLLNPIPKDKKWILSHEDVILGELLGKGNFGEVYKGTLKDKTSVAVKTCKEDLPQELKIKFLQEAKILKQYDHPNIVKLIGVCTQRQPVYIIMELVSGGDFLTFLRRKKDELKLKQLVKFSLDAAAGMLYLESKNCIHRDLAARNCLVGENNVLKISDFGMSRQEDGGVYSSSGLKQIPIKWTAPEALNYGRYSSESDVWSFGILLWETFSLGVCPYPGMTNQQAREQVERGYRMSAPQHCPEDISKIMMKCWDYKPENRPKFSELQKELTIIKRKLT
UniProt P00519, sequence (whole entry, unmodified, looked up): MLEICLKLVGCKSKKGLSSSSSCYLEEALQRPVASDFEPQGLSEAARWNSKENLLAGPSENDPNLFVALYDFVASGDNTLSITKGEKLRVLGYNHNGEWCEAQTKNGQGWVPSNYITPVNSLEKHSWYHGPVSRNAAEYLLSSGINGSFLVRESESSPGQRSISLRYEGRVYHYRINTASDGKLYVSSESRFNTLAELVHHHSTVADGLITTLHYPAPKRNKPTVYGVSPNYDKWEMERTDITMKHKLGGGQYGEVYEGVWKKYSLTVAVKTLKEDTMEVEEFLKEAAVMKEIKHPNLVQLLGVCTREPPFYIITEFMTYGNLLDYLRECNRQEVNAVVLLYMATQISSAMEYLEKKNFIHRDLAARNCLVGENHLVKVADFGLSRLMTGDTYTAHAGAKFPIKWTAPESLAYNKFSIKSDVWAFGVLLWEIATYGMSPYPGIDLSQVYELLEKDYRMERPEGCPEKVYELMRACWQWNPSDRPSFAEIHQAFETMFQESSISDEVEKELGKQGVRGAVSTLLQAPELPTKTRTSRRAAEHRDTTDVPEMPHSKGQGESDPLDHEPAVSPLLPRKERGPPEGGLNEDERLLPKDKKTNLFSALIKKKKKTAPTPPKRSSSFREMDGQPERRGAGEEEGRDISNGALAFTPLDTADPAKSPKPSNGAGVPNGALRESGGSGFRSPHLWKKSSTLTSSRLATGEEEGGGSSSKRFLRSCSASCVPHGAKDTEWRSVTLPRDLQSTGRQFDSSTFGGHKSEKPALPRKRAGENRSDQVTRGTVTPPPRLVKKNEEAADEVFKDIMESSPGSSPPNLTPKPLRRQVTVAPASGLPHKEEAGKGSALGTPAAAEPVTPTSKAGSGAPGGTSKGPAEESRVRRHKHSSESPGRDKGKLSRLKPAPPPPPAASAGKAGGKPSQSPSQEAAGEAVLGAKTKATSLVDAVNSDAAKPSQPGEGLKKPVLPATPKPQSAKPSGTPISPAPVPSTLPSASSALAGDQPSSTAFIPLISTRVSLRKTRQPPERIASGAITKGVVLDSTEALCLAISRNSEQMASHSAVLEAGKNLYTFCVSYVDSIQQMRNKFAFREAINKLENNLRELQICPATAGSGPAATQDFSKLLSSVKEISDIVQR
UniProt P23458, sequence (whole entry, looked up): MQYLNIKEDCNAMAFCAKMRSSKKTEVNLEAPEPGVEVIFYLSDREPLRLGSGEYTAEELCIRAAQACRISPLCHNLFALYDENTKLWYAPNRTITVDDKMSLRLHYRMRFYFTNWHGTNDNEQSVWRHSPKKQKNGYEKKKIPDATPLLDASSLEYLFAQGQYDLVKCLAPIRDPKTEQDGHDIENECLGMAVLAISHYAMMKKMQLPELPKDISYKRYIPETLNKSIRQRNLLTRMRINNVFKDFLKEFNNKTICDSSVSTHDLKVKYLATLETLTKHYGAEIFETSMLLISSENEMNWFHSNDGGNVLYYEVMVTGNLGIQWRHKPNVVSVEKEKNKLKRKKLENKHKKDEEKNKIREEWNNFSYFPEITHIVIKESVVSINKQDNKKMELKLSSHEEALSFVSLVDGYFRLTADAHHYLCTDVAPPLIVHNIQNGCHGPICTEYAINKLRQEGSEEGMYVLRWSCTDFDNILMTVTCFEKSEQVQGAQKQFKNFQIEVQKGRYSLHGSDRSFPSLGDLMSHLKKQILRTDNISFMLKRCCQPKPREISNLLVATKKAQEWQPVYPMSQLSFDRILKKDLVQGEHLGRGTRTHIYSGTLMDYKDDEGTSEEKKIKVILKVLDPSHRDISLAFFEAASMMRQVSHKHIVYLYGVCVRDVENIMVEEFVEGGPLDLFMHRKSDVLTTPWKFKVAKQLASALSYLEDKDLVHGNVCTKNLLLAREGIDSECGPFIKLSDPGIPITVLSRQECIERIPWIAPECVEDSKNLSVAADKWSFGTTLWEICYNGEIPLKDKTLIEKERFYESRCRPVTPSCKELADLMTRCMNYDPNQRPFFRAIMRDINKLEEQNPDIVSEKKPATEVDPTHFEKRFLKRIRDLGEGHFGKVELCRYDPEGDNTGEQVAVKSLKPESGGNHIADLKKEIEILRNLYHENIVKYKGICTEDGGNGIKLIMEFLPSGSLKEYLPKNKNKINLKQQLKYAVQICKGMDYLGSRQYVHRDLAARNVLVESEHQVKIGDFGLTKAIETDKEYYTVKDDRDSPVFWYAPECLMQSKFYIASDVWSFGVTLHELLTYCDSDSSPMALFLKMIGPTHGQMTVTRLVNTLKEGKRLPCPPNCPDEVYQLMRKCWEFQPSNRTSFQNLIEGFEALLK
UniProt Q8TDC3, sequence (whole entry, looked up): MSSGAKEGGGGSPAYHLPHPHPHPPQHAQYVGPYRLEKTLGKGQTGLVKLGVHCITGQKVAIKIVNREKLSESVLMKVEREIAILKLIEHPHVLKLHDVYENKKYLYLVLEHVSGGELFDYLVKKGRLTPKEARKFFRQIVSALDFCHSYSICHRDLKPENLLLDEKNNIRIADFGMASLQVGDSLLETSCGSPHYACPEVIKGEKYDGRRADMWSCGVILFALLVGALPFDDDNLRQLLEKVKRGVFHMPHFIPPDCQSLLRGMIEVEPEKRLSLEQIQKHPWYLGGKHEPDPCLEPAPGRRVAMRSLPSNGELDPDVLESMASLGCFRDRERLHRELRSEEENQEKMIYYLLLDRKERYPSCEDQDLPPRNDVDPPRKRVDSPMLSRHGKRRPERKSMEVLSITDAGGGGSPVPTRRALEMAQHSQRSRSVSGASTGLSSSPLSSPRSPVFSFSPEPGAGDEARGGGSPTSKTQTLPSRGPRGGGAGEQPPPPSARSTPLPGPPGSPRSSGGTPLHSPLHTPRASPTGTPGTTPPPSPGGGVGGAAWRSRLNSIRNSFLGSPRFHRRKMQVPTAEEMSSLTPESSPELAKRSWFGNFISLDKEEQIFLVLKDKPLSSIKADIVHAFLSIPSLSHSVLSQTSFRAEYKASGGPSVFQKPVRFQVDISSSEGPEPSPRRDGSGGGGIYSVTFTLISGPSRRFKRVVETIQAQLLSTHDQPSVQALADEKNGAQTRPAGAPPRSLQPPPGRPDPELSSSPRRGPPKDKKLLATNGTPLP
UniProt P28482, sequence (whole entry, looked up): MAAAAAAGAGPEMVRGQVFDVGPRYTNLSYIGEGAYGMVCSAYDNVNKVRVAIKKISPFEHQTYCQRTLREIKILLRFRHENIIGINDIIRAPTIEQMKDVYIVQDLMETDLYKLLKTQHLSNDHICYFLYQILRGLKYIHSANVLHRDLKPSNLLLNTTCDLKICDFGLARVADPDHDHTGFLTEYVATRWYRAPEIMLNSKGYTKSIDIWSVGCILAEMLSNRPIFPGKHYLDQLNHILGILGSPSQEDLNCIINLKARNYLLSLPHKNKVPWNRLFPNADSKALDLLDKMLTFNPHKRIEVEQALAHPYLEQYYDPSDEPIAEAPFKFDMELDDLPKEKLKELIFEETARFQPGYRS

Set 1
SMILES: CC[C@@]1(c2cccc(-c3c(F)cncc3OC)c2)C2=C(Nc3n[nH]cc31)[C@H](F)C(C)(C)CC2=O (single isomer, unassigned)
Concentration: 1 µM
target	effect on	method	relative to	remaining binding
Inhibitor of nuclear factor kappa-B kinase subunit epsilon (IKBKE, Homo sapiens, UniProt Q14164)	kinase binding	KINOMEscan	DMSO control	93%
Protein kinase C iota type (PRKCI, Homo sapiens, UniProt P41743)	kinase binding	KINOMEscan	DMSO control	78%
Tyrosine-protein kinase Fer (FER, Homo sapiens, UniProt P16591)	kinase binding	KINOMEscan	DMSO control	100%
Mitogen-activated protein kinase 1 (MAPK1, Homo sapiens, UniProt P28482)	kinase binding	KINOMEscan	DMSO control	95%
Serine/threonine-protein kinase MRCK gamma (CDC42BPG, Homo sapiens, UniProt Q6DT37)	–	KINOMEscan	–	100%
Dual serine/threonine and tyrosine protein kinase (DSTYK, Homo sapiens, UniProt Q6XUX3)	binding	competition with immobilised ligand	–	61%
Dual specificity tyrosine-phosphorylation-regulated kinase 1B (DYRK1B, Homo sapiens, UniProt Q9Y463)	binding	competition with immobilised ligand	–	100%
Ribosomal protein S6 kinase alpha-6, N-terminal kinase domain (RPS6KA6, Homo sapiens, UniProt Q9UK32)	binding	competition with immobilised ligand	–	84%
Serine/threonine-protein kinase BRSK1 (BRSK1, Homo sapiens, UniProt Q8TDC3)	binding	competition with immobilised ligand	–	100%
Mitogen-activated protein kinase kinase kinase 12 (MAP3K12, Homo sapiens, UniProt Q12852)	kinase binding	KINOMEscan	DMSO control	58%
Tyrosine-protein kinase JAK1, JH1 (JAK1, Homo sapiens, UniProt P23458)	binding	competition with immobilised ligand	–	100%
Tyrosine-protein kinase ABL1, phosphorylated (ABL1, Homo sapiens, UniProt P00519, E255K)	binding	competition with immobilised ligand	–	79%

Set 2
SMILES: CCN1/C(=C/C=C2\CCCC(/C=C/C3=[N+](CC)c4ccccc4C3(C)C)=C2NCCCCCCCCN2CCC(Nc3nc4ccccc4n3Cc3ccc(F)cc3)CC2)C(C)(C)c2ccccc21
Cell line: U-87 MG
Concentration: concentration not given
Relative to: DMSO
item	log2 fold change
CDCP1 mRNA	-2.18
FOXO3B mRNA	0.833
NFIX mRNA	-1.08
CHORDC1 mRNA	1.26
LAMA5 mRNA	-1.29
LZTFL1 mRNA	1.16
PML mRNA	-0.901
RORB mRNA	1.2
SLC3A2 mRNA	1.44
CNPY4 mRNA	-1.6
RNASEH2A mRNA	-1.58

Set 3
SMILES: COCC1CC2C(CCC3C(O)CCC32)c2ccc(O)cc21 (stereo not drawn)
cell line	method	item	concentration	relative to	mRNA level ratio
A549	microarray	MCM6	100 µM	untreated	0.915
A549	DNA microarray	GINS1	25 µM	untreated cells	1.11
SK-OV-3	microarray	MCM6	100 µM	untreated	0.933
SK-OV-3	DNA microarray	KIF20A	100 µM	untreated cells	0.98 and 0.991 and 1.05 and 0.951 and 0.931
A549	microarray	MCM6	25 µM	untreated	1.05
A549	DNA microarray	ACTB	25 µM	untreated cells	1.02 and 1.03 and 1.05
SK-OV-3	microarray	AURKA	25 µM	untreated	1.01
A549	DNA microarray	C6	100 µM	untreated cells	165
SK-OV-3	DNA microarray	TMEM108	100 µM	untreated cells	1.06
PANC-1	DNA microarray	TMEM108	25 µM	untreated cells	2.02
PANC-1	DNA microarray	KIF20A	25 µM	untreated cells	1.48 and 1.59 and 1.6 and 1.47 and 1.53
PANC-1	DNA microarray	GAPDH	25 µM	untreated cells	0.62 and 0.617 and 0.619 and 0.612
A549	microarray	CCL11	100 µM	untreated	268
A549	DNA microarray	MCM7	100 µM	untreated cells	0.733
SK-OV-3	microarray	RFC3	25 µM	untreated	1.34
PANC-1	DNA microarray	ACTB	100 µM	untreated cells	0.512 and 0.515 and 0.513 and 0.506
SK-OV-3	DNA microarray	GINS1	100 µM	untreated cells	0.789
SK-OV-3	DNA microarray	MCM10	100 µM	untreated cells	0.732

Set 4
Compound: Cc1ncsc1-c1ccc(C(CO)NC(=O)C2CC(O)CN2C(=O)C(C(C)C)n2cc(-c3ccc(COc4c(-c5c(C)c(F)cc6[nH]ncc56)c(C5CC5)cc5c(N6CC7CC6CN7)nc(OC6CCOCC6)nc45)cc3)nn2)cc1 (stereo not drawn)
cells	host	route	dose	time	tumour volume
–	mouse, HT-29 xenograft	sc	30 mg/kg once daily	day 15	756 mm3 and 1030 mm3 and 979 mm3 and 806 mm3 and 618 mm3
–	mouse, HT-29 xenograft	sc	30 mg/kg once daily	day 10	581 mm3 and 561 mm3 and 669 mm3 and 703 mm3 and 551 mm3
–	mouse, PK-59 xenograft	–	3 mg/kg	day 17	527 mm3 and 523 mm3 and 375 mm3 and 447 mm3 and 376 mm3
HPAC xenograft	mouse	–	30 mg/kg once weekly	day 14	413 mm3 and 376 mm3 and 314 mm3 and 344 mm3 and 331 mm3
–	mouse, A-375 xenograft	sc	30 mg/kg once daily	day 1	177 mm3 and 126 mm3 and 152 mm3 and 137 mm3 and 162 mm3
–	mouse, lung LXFA sample B PDX	–	30 mg/kg twice weekly	day 7	170 mm3 and 104 mm3 and 127 mm3 and 38.8 mm3 and 103 mm3 and 56 mm3 and 62.2 mm3 and 84.1 mm3
–	mouse, PK-59 xenograft	subcutaneous	30 mg/kg once daily	day 6	142 mm3 and 124 mm3 and 131 mm3 and 125 mm3 and 107 mm3

Repeated from above (set 4):
cells	host	route	dose	time	tumour volume
–	mouse, HT-29 xenograft	sc	30 mg/kg once daily	day 15	756 mm3 and 1030 mm3 and 979 mm3 and 806 mm3 and 618 mm3
–	mouse, HT-29 xenograft	sc	30 mg/kg once daily	day 10	581 mm3 and 561 mm3 and 669 mm3 and 703 mm3 and 551 mm3
–	mouse, PK-59 xenograft	–	3 mg/kg	day 17	527 mm3 and 523 mm3 and 375 mm3 and 447 mm3 and 376 mm3
